Assay results collected from several papers.
A part holds a random share of what one study measured. Changes are numbered by the printed parent chain.

Sample 1 — target: CCND2, cyclin fold, Cln2 fusion (human); technique: yeast growth competition, sequencing; sample: yeast; setting: weak parent motif; relative to: not given; reading: higher = stronger binding
Parent: PKMYT1 docking peptide (human); SFEPRNLLSLFED; partner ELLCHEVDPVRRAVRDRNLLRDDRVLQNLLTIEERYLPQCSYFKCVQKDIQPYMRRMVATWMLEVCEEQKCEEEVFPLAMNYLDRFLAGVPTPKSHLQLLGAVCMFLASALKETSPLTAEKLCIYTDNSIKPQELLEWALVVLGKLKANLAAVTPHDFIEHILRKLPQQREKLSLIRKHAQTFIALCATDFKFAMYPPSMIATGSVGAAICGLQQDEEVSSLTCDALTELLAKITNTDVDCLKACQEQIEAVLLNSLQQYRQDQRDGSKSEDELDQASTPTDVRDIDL
Substitution	normalised enrichment score
SFQPRNLLSLFED [E3Q]	0.191
SFEPPNLLSLFED [R5P]	0.139
NFEPRNLLSLFED [S1N]	0.102
SFEPRNSLSLFED [L7S]	0.148
SFEQRNLLSLFED [P4Q]	0.381
SFEPRNLLSLFEA [D13A]	0.164
SFEPRNLLILFED [S9I]	-0.0401
SFEPRNLLSLKED [F11K]	0.341
SFEPRNLISLFED [L8I]	-0.0839
SFEPCNLLSLFED [R5C]	0.144
SFEPRNLRSLFED [L8R]	0.163
SFEPRNLGSLFED [L8G]	-0.14
SFEDRNLLSLFED [P4D]	0.0537
SFEPRNILSLFED [L7I]	-0.0666
SFEPRNLLSLFEK [D13K]	-0.163
SFEPRNLLSLFEF [D13F]	0.245
SFRPRNLLSLFED [E3R]	-0.578
SFEPQNLLSLFED [R5Q]	0.309
SFEPRNLASLFED [L8A]	0.409

Sample 2 — technique: DHFR PCA, deep sequencing; sample: yeast; together with: (+)-ABA 4.8 µM; relative to: wild-type fitted maximum; reading: higher = stronger binding
Target: ABI1, truncated, D143A, DHFR fusion (Arabidopsis thaliana)
Setting: methotrexate growth selection, single substitutions
Parent: PYL1, truncated, DHFR fusion (Arabidopsis thaliana); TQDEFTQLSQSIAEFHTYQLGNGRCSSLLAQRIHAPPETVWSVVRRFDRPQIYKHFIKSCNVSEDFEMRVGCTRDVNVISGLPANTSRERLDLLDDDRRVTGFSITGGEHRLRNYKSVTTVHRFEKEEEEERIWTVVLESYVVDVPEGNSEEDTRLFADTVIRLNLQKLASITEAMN
Substitution	relative binding score [%]
T1C	73.5
R98P	1.23
F124V	77.8
T1E	74.3
V62C	41.2
E89H	-12
E38I	-26.6
V78N	17
G108R	-4.65
E38H	40.5
L8K	19.7
L94R	-5.79
M176T	56.2
I79F	64.5
L166E	-15.2

Sample 3 — technique: RNA Bind-n-Seq; molecule type: RNA; sample: in vitro; tested at: 200 nM; setting: whole 134-nt RNA, ends assumed; together with: 150 mM LiCl; relative to: input library; reading: higher = stronger binding; each molecule: 7-deaza-guanosine replaces G
Target: Fragile X messenger ribonucleoprotein 1, C-terminal low-complexity region (Fmr1, Mus musculus, UniProt P35922)
Shared flanks, not repeated: GGGAGUUCUACAGUCCGACGAUC … UGGAAUUCUCGGGUGUCAAGG
Sequence	log2 enrichment
CCUCAAGUCCUGUGCUACACAUCGUAUGUACCGAAUCGGUGGAGGUUUUUGGAAAGUAUUAUGUUACGCCGUUCGGAUCUGCACUUCCAG	0.379
GCAGGAAGUAAAAACAAAUGGAAAUGCUUCGGAUAGUGGCAGGGGUGGGGGUUGCUAAGGAAAGGGUGGGAAAGGAGUGGGUAAAGAGUU	1.9
GUCCUGUGCUACACAUCGUAUGUACCGAAUCGGAAAAAAAGGUUUUUUUGGAAAAAGGAAAGUAUUAUGUUACGCCGUUCGGAUCUGCAC	-2.84
AAGUCCUGUGCUACACAUCGUAUGUACCGAAUCGGGGCCCCGGCCCCGGCCCCGGGAAAGUAUUAUGUUACGCCGUUCGGAUCUGCACUU	-2.59
UCAAGUCCUGUGCUACACAUCGUAUGUACCGAAUCGGGGAGGGGUGGGGUGGGGAAAGUAUUAUGUUACGCCGUUCGGAUCUGCACUUCC	-0.369
AGUCCUGUGCUACACAUCGUAUGUACCGAAUCGGCCCCCGGCCCCCGGGCCCCCGGGAAAGUAUUAUGUUACGCCGUUCGGAUCUGCACU	-0.794
UGGGACGUGGAUUUUGUUUAUUUUUUUAGCUCAUUUCCAGGGGUGGGAAUUUUUUUUUAAUAUGUGUCAUGAAUAAAGUUGUUUUUGAAA	1.34

Mixed results
Molecule	target	assay	test system	setting	scale	measurement	result
PhoQ, residues 284 288 289 292 302 303 SQSLSM	PhoP, residues 12 14 15 18 19 LHATL (Escherichia coli, UniProt P23836)	Sort-seq, measured: YFP reporter	E. coli	PhoQ-PhoP variant library, together with: 10 µM Mg2+	relative to: high Mg2+ state, higher = stronger signaling	fold induction	0.771
